# Measured values gathered from unrelated publications.
# Protocols differ between the studies behind these lines. “And” joins repeats or separate records; there may be more than shown. Numbers after ± are the reported error.
SMILES,test,system,setting,how to read,quantity,value
C=CC(=O)Nc1cc(Nc2nccc(-c3cn(C)c4ccccc34)n2)c(OC)cc1N(C)CCN(C)C,storage stability,human dried blood spots,"5 h, -80 °C, medium QC level",,recovery,89.9%
O=C(N[C@H](Cc1c[nH]c2ccccc12)C(=O)Nc1ccncc1)c1ccc(-c2ccc(F)c(Cl)c2)cc1F,,"Swiss Webster mouse, female, heart","oral, 50 mg/kg, 2 h, 20% Kolliphor vehicle",,concentration,8.5 µM
CN1C[C@H](COc2nccc3c(NCc4ccco4)cc(Cl)nc23)OC1=O,,"rabbit NZW female, isolated Langendorff heart","3 µM, 15 min",,left ventricular end-diastolic pressure,6 mmHg
[18F]c1ccc(-c2ccc3c(c2)[nH]c2ccncc23)cn1,ex vivo biodistribution,"B6SJL mouse, normal, spleen","intravenous, 30 min",,SUV,3.62 ± 1.07
CCN1/C(=C/C(C)=O)Sc2ccc(F)cc21,,cynomolgus monkey,"oral, 100 mg/kg, 0.5 h post-dose",,mean blood pressure,90 ± 4 mmHg
COc1cc(NC(=O)CCN2CCC(OC(=O)Nc3ccccc3-c3ccccc3)CC2)c(Cl)cc1CNC[C@H](O)c1ccc(O)c2[nH]c(=O)ccc12,equilibrium dialysis,"rat, lung homogenate",,,fraction unbound,0.00048
OC[C@H]1O[C@@H](c2ccc(F)c(Cc3cc4ccccc4s3)c2)[C@H](O)[C@@H](O)[C@@H]1O,,"Japanese type 2 diabetes patients, plasma","oral, 25 mg/day, day 1",,renal clearance,1.83 ± 0.373 mL/min
COC(=O)N[C@@H](C)CNc1nccc(-c2cn(C(C)C)nc2-c2cc(Cl)cc(NS(C)(=O)=O)c2F)n1,,"human, plasma","oral, single dose, with: diltiazem",baseline: compound alone,AUClast geometric mean ratio,184%
CCc1cc(C(=O)NC)c2nccc(N3CCc4c(cc(Cn5ccnc5)cc4-c4cn(C)nc4C(F)(F)F)C3=O)c2c1,,Sprague Dawley rats,"oral, 100 mg/kg once daily, 7 days",baseline: vehicle,serum LDL change,9%
Cc1cc(NC2CCN(C(=O)OC3CCN(C(=O)/C=C/CN(C)C)C3)CC2)n2ncc(C(C)C)c2n1 (stereo not shown),"Phase I dose escalation CTCAE v4.0, measured: peripheral oedema",patients with advanced solid tumours,"dose not given, QD dosing any grade",,patients with adverse event,12%
COc1ccc(/C=N/NC(=O)Cn2c(-c3ccc(S(C)(=O)=O)cc3)nc3cc(C)ccc32)cc1,,"rat, stomach","concentration not given, 4 h",baseline: indomethacin,ulcer index,34.6%
O=C(O)CSc1nnc(Br)n1-c1ccc(C2CC2)c2ccccc12,,"KM mouse, chronic hyperuricaemia model","dose not given, day 30",,body weight,43 g and 39.8 g and 38.6 g and 35.4 g and 36.8 g and 38.8 g
CSc1cc(Oc2ccnc3[nH]c(=O)cnc23)ccc1NC(=O)Nc1cc(C(C)(C)C)nn1-c1ccccc1,,"female nude mice, tumour-bearing","oral, 20 mg/kg, 1 h after last dose",,tumour concentration,8.1 µM
O=C(O)CCC(=O)O.[2H]C([2H])([2H])Oc1cc(C)c2[nH]ccc2c1CN1CC[C@@H](C2CC2)C[C@H]1c1ccc(C(=O)O)cc1,,healthy Chinese subjects,"50 mg, single ascending dose",,TEAE sinus bradycardia,16.7%
Cc1cc(Nc2ccc(S(F)(F)(F)(F)F)cc2)n2nc(C(C)(F)F)nc2n1,,Plasmodium vivax malaria patients,"oral, 600 mg",,adverse event Nausea,0%
Cc1nc2cccc(OCC(C)(C)C(=O)NC(C)C)c2c(N)c1C(=O)O,,"male Swiss albino CD-1 mouse, bone marrow","oral, 2000 mg/kg, 36 h",,micronucleated polychromatic erythrocytes,0.06%
CSc1ccccc1C(=O)NCCn1cc(C(=O)NCc2cccc(C)n2)c(=O)c2cc3c(cc21)OC(F)(F)O3,,"Sprague-Dawley rat, male, plasma","intravenous, 5 mg/kg of parent compound",,AUC(0-t),173 ± 20 ng·h/mL
Cc1cc(-c2nccc3c2ccn3CC(=O)Nc2ccc(-c3cnccn3)cn2)ccn1,,human,"15 mg once daily, multiple ascending dose",,subjects with infections,11.1%
CS(=O)(=O)n1cc2c(n1)CN([C@H]1CO[C@H](c3cc(F)ccc3F)[C@@H](N)C1)C2,,"healthy Japanese men, plasma","oral, 10 mg, fed, single dose",,AUC(0-168 h),8.75 µM·h
C[C@@H]1COCCN1c1cc(C2([S@](C)(=N)=O)CC2)nc(-c2cc[nH]c3nccc2-3)n1,,Japanese advanced solid tumour patients,"oral, 160 mg twice daily, CTCAE grade ≥3",,Nausea incidence,0%
CNCc1ccc(-c2[nH]c3cc(F)cc4c3c2CCNC4=O)cc1,,human patients,"oral, 360 mg twice daily, all grades",,malignant neoplasm progression incidence,12.5%
C[C@@H]1OC(=O)[C@H](Cc2ccccc2)[C@H]1O,,"aerobic laboratory soil, dark","shortest worst case, dosed as metabolite, modelling endpoint",,DT50,0.35 days
CC(C)(C(=O)N1CCOc2c(C#N)cncc2C1)C(F)F,,"healthy humans, both sexes, plasma","oral, 40 mg single dose, 1.33-fold dose increase",baseline: 40 mg over 30 mg,AUClast dose proportionality ratio,2.11
OB1NN=Cc2ccccc21,"stability, UPLC-MS",diluted serum,"3 day, 37 °C",higher = more compound remaining,peak area,305000 a.u. and 309000 a.u. and 310000 a.u.
Cc1ccc(CNC(=O)c2cc(/C=C/C(=O)O)cc(-c3ccc4ncnn4c3)c2)cc1,,human liver microsomes,"1 µg/mL, 60 min, with: NADPH",,metabolic stability,stable
C[C@H]1CN(C(=O)CC#N)[C@]12CCN(c1ncnc3[nH]ccc13)C2,,human,"oral, 3 mg single dose",,participants with treatment-related TEAEs,0%
Cc1cccc(CNC(=O)c2cn(CCNC(=O)c3ccccc3Sc3c([N+](=O)[O-])ncn3C)c3cc4c(cc3c2=O)OC(F)(F)O4)n1,,"Sprague-Dawley rat, male, plasma","intramuscular, 10 mg/kg of parent compound",,AUC(0-t),200 ± 47.1 ng·h/mL
CCCCCCCOc1ccc(CCC(N)(CO)CO)cc1C(F)(F)F.Cl,,healthy men,"oral, 0.75 mg, day 1",,renal clearance,0.199 mL/min
COc1cc(C(=O)N2CCC3(CC2)CC(=O)c2c(cnn2C(C)C)C3)cc(-c2ccc(C(=O)O)cc2)n1,measured: total cholesterol,"human, fasting serum","1 mg every 12 h, day 13, adjusted geometric mean",baseline: baseline and placebo,placebo-adjusted change from baseline,-1.9%
COc1cc2nccc(Oc3ccc(NC(=O)c4cc5c(n(-c6ccccc6)c4=O)CCCC5=O)nc3)c2cc1OC,,"human, relapsed/refractory AML","oral, 3 mg once daily, grade ≥3, any causality",,patients with febrile neutropenia,20%
Cc1ccc(Sc2ccccc2N2CCNCC2)c(C)c1,measured: hot flush,healthy adult women,"oral, 5 mg daily, 12 days",,participants with TEAE,16.7%
C[C@H]1Oc2cc(cnc2N)-c2c(nn(C)c2C#N)CN(C)C(=O)c2ccc(F)cc21,,"human patients, plasma","oral, dose not given, cycle 2 day 1, mean, with: avelumab",,AUClast,5460 ng·h/mL
CCOc1c([C@H](C)n2nc(C)c3c(N)ncnc32)cc(Cl)c(F)c1[C@@H]1CNC(=O)C1,,rat plasma,"1600 ng/mL, 3 h, room temperature",baseline: nominal concentration,stability relative error,11.4%
NC1(C(=O)N[C@@H](CCO)c2ccc(Cl)cc2)CCN(c2nc[nH]c3nccc2-3)CC1,,metastatic CRPC patients,"480 mg b.i.d., grade 3 to 4, treatment-related, with: enzalutamide 160 mg daily",,incidence of Stomatitis,0%
Cc1nc(-c2cnc(NC(C)C)n(C)c2=O)ccc1Oc1ccnc(-c2cnn(C)c2)c1,,"DBA/1 mouse, female, plasma","oral, 30 mg/kg, single dose",,apparent volume of distribution,2.33 L/kg
Cc1ccc(O)c(-n2nc3ccccc3n2)c1,exposure assessment,"human, age 21-60 years","concentration not given, cream, 95th percentile",,"daily dermal uptake, percentile",2250 ng/kg body weight/day
NC[C@@]1(CC(=O)O)[C@@H]2CC[C@H]3C[C@@H]2[C@@H]1C3,,"human, severe renal impairment, urine","oral, 20 mg single dose",,cumulative amount excreted,11.8 ± 2.59 mg
Cn1cncc1-c1c(F)cncc1NC(=O)c1c(N)nn2cc(F)cnc12,,"patients, advanced solid tumours","oral, 180 mg once daily",baseline: patients,grade ≥2 adverse events,60%
O=C(Nc1nc2cccc(-c3ccc(CN4CCS(=O)(=O)CC4)cc3)n2n1)C1CC1,measured: dysgeusia,human rheumatoid arthritis patients,"oral, 75 mg once daily, 4 weeks, regardless of relatedness",,treatment-emergent adverse events,0%
CCC(=O)N(CCC(c1ccc2c(c1)OCO2)c1ccccc1OC)Cc1ccccc1 (stereo not shown),,"mouse, blood","i.p., 60 mg/kg twice daily, 2 weeks",,Na/K ratio,36.8
CCOc1c([C@H](C)n2nc(C)c3c(N)ncnc32)cc(Cl)c(F)c1[C@@H]1CNC(=O)C1,,previously treated B-cell malignancy patients,"oral, dose not given, all doses, baseline QTcF ≤450 ms",,share of patients with ΔQTcF ≤30 ms,100%
Cc1c(Cl)c(C)[n+]([O-])c(Cl)c1-c1noc(-c2cc(O)c(O)c([N+](=O)[O-])c2)n1,measured: Hyperhidrosis,healthy Chinese subjects,"oral, 50 mg, 20 days",,adverse drug reaction incidence,0%
CC(=O)/N=S(\c1ccc(C(F)(F)F)cc1)C1CC1 (stereo not shown),,human liver microsomes,,baseline: hepatic blood flow,metabolic stability,< 23%
CCCCc1nc2cc(/C=C/C(=O)NO)ccc2n1CCN(CC)CC,,"mouse, HEL 92.1.7 subcutaneous xenograft","125 mg/kg every other day, day 17",baseline: baseline,body weight,97.4%
Cc1ccc(C(=O)N(CCCN)C(c2nc3snc(C)c3c(=O)n2Cc2ccccc2)C(C)C)cc1 (stereo not shown),,human patients,"intravenous, 10 mg/day",,grade ≥3 fatigue patients,33%
C[C@@H](N)C1CCN(S(=O)(=O)c2cccc3cnccc23)CC1,,healthy volunteers,"25 mg, fasted",,discontinuations due to TEAEs,0%
CCn1c(=O)c(-c2cc(NC(=O)Nc3ccccc3)c(F)cc2Br)cc2cnc(NC)cc21,measured: accidental overdose,"human, moderate hepatic impairment","oral, 50 mg single dose",,participants with grade ≥ 3 TEAE,12.5%
COc1ccnc(C(=O)N[C@H]2COC(=O)[C@H](Cc3ccccc3)[C@@H](O)[C@H](C)OC2=O)c1O,aerobic dark soil incubation,silt loam soil,"20 °C, modelling endpoint",,DT50,59.3 days
Cn1cc(Nc2nccc(-c3ccc4c(c3)CN(C3COC3)CC[C@H]4NC(=O)c3cn(C(C)(C)C)nn3)n2)cn1,measured: plasma cell count,"human, clinical trial, whole blood","50 mg twice daily, follow-up",,percent change from baseline,87.4%
C=CC(=O)N1CCC(Oc2cc3c(Nc4ccc(Cl)c(Cl)c4F)ncnc3cc2OC)CC1,,"Sprague-Dawley rat, male, plasma","oral, 2 mg/kg, 1 weeks pretreatment, with: Schisandrin B 20 mg/kg daily pretreatment",,Vz/F,1.42 ± 0.26 L/kg
N#Cc1ccc2c(c1)[C@H]1CCCN(C(=O)c3ccc4[nH]cnc4c3)[C@H]1C2,,human males,"240 mg, day 15",,SHBG level,24 nmol/L
CC(=O)O[C@H]1C(=O)[C@@]2(C)[C@H]([C@H](OC(=O)c3ccccc3)[C@]3(O)C[C@H](OC(=O)[C@H](O)[C@@H](NC(=O)c4ccccc4)c4ccccc4)C(C)=C1C3(C)C)[C@]1(OC(C)=O)CO[C@@H]1C[C@@H]2O,,patients with advanced solid tumours,"intravenous, dose not given, phase Ib, probably related to compound",,"adverse events, any",70%
O=C1CC[C@H](N2Cc3cc(N4CCN(CC5CCN(c6ccc([C@@H]7c8ccc(O)cc8CC[C@@H]7c7ccccc7)cc6)CC5)CC4)ccc3C2=O)C(=O)N1,measured: Nausea,human,"oral, 200 mg, with: dabigatran etexilate 75 mg",,participants with adverse event,0%
CCc1c(C)nc(-c2ccc(Cl)s2)nc1Nc1ccc(CC(=O)O)cc1,,"mice, chronic ethanol plus binge","intraperitoneal, 0.3 mg/kg daily, ethanol diet 4 weeks, dosed last two",baseline: vehicle,serum creatinine,no effect
Cc1cc(-c2nnc(N)nc2-c2ccc(F)cc2)cc(Cl)n1,measured: Rash,IO-naive colorectal cancer patients,"oral, dose not given, treatment-related, all grades",,patients with immune-mediated AE,4%

# Repeated from above:
SMILES,test,system,setting,how to read,quantity,value
Cc1cc(Nc2ccc(S(F)(F)(F)(F)F)cc2)n2nc(C(C)(F)F)nc2n1,,Plasmodium vivax malaria patients,"oral, 600 mg",,adverse event Nausea,0%
Cc1nc2cccc(OCC(C)(C)C(=O)NC(C)C)c2c(N)c1C(=O)O,,"male Swiss albino CD-1 mouse, bone marrow","oral, 2000 mg/kg, 36 h",,micronucleated polychromatic erythrocytes,0.06%
CSc1ccccc1C(=O)NCCn1cc(C(=O)NCc2cccc(C)n2)c(=O)c2cc3c(cc21)OC(F)(F)O3,,"Sprague-Dawley rat, male, plasma","intravenous, 5 mg/kg of parent compound",,AUC(0-t),173 ± 20 ng·h/mL
Cc1cc(-c2nccc3c2ccn3CC(=O)Nc2ccc(-c3cnccn3)cn2)ccn1,,human,"15 mg once daily, multiple ascending dose",,subjects with infections,11.1%
